Assay results gathered from unrelated publications.
Parts stem from different laboratories: compare values within a part only. Several values in a cell are separate wells, animals, samples, runs or records.
Sequence of UniProt P08631 (whole entry, looked up): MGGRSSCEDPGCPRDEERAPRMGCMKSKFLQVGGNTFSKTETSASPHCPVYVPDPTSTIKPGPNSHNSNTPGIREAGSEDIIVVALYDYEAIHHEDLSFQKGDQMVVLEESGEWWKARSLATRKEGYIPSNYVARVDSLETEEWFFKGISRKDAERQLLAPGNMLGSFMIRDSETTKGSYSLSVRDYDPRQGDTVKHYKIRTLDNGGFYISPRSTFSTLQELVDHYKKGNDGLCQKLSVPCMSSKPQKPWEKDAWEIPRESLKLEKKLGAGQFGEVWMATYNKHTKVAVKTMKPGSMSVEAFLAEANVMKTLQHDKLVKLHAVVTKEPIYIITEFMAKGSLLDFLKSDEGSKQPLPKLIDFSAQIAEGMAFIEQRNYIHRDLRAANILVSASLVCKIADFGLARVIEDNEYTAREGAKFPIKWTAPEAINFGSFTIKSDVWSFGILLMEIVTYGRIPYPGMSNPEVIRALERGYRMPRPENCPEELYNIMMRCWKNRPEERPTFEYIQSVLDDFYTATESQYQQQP
Sequence of UniProt P53350 (whole entry, looked up): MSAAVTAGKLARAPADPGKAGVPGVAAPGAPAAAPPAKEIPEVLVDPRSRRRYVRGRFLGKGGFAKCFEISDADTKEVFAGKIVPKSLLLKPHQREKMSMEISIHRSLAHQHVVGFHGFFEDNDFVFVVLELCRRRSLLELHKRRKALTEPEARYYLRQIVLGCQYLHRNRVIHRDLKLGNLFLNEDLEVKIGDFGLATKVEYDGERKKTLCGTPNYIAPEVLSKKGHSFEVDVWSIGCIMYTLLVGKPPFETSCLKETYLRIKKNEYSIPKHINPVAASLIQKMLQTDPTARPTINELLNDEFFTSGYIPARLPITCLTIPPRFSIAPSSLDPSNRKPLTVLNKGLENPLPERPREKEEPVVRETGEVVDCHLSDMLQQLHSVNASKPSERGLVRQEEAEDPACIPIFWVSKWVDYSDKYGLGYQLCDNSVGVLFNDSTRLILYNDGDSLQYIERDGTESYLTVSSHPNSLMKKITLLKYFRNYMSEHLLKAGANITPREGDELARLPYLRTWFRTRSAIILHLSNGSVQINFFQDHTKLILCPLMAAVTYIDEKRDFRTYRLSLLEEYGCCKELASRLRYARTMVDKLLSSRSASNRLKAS
Sequence of UniProt Q96L34 (whole entry, looked up): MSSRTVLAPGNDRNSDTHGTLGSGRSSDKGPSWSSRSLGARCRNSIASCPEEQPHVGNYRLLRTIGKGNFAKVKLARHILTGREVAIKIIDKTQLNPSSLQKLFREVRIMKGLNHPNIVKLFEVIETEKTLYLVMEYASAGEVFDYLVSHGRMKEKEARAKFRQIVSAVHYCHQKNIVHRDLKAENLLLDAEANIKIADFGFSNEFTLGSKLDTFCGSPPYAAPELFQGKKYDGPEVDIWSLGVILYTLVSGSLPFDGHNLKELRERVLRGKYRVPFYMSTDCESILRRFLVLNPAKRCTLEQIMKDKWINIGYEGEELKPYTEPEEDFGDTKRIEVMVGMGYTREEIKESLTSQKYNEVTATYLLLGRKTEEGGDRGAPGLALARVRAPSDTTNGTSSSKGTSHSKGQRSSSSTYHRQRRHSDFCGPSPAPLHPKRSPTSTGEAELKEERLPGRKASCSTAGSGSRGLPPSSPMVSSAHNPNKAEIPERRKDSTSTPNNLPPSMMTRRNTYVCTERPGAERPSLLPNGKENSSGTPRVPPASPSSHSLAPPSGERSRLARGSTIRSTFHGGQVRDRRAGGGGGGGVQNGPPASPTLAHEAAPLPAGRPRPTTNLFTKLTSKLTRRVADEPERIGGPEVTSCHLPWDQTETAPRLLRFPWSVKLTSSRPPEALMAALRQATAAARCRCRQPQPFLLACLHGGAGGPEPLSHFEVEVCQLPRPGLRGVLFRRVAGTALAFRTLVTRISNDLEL
Sequence of UniProt Q52WX2 (whole entry, looked up): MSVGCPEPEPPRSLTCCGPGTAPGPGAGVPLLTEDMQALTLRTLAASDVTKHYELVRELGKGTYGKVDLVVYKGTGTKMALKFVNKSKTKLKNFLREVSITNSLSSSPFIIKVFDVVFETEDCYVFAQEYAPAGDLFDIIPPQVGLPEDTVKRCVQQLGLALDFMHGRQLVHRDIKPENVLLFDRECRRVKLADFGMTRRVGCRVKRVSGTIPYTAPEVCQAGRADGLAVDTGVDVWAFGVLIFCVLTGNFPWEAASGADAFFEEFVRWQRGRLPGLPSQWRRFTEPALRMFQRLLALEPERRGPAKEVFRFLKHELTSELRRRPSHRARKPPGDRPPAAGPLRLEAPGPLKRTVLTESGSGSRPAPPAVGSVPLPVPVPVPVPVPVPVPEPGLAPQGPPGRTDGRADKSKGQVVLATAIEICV
Sequence of UniProt P27037 (whole entry, looked up): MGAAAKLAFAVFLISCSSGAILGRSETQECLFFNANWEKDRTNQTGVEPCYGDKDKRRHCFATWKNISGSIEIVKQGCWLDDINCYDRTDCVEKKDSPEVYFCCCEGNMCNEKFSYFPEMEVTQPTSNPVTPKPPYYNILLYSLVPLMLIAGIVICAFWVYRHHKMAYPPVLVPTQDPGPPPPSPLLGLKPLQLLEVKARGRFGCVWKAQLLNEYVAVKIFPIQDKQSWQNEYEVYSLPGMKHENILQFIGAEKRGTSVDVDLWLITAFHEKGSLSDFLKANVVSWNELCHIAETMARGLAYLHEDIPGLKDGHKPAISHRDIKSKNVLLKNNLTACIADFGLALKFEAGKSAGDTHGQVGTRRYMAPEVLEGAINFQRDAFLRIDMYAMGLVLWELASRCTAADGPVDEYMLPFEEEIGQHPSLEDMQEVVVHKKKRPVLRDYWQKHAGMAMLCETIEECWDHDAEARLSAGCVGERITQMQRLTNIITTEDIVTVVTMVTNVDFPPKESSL
Sequence of UniProt Q9UK32 (whole entry, looked up): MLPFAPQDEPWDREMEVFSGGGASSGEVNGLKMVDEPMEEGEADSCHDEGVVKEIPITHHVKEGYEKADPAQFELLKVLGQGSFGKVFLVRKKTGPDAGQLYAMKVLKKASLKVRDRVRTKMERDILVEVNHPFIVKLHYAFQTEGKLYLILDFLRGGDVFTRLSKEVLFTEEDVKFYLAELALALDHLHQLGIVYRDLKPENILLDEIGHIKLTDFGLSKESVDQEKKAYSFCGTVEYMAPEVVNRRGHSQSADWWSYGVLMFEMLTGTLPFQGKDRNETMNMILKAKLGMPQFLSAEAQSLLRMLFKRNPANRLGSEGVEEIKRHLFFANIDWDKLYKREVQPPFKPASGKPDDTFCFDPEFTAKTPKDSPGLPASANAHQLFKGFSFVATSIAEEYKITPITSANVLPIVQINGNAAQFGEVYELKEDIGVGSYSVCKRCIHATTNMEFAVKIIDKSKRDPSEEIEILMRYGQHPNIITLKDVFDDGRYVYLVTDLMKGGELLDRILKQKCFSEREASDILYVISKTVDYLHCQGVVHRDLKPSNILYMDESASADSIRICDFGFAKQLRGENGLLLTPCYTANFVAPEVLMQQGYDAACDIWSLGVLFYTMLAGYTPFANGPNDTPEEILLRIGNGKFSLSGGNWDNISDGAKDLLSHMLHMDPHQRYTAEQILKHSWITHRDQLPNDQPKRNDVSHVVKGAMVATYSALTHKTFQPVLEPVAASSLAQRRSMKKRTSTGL
Sequence of UniProt Q6P3R8 (whole entry, looked up): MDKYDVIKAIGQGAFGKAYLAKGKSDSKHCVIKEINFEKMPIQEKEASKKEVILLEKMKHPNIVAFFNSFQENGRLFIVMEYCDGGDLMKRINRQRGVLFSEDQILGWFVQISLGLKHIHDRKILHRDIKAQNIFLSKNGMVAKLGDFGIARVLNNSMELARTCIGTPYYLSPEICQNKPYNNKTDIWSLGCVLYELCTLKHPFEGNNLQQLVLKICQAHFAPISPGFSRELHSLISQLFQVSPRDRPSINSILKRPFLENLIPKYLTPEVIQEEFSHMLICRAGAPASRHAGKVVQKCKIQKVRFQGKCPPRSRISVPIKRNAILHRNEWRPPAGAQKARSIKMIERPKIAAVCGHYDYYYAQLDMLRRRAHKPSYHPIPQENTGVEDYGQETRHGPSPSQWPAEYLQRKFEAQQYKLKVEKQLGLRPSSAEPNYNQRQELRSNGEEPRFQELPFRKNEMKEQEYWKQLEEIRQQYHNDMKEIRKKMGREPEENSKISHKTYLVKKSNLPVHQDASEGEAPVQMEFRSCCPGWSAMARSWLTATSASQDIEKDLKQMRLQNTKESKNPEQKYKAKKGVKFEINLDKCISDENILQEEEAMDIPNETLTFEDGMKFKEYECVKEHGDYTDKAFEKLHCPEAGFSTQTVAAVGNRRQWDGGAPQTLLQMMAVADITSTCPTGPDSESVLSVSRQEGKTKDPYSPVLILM
Sequence of UniProt P42681 (whole entry, looked up): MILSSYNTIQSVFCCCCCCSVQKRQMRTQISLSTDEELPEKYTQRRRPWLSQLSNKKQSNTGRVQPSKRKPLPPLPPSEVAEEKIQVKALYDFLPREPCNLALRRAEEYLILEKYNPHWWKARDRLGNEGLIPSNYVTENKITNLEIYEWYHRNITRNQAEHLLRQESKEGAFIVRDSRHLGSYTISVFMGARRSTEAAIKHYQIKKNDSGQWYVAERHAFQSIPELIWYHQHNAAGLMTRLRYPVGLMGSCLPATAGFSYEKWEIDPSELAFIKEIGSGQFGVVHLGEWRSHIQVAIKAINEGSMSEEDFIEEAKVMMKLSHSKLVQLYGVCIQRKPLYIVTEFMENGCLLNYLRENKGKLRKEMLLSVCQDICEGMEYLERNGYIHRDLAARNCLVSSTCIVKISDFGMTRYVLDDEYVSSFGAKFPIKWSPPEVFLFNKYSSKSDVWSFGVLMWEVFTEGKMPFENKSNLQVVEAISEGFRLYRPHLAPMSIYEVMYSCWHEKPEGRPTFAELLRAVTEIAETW

Series 1
SMILES: O=C1CCC(N2Cc3cc(C4CCN(Cc5ccccc5)CC4)ccc3C2=O)C(=O)N1 (centres unmarked)
Matrix: plasma
| species | route | dose | time | plasma concentration |
| --- | --- | --- | --- | --- |
| male ICR mice | intravenous | 1 mg/kg | 2 h | 37.5 ng/mL |
| ICR mouse, male | oral | 3 mg/kg | 6 h | 12.7 ng/mL and 8.43 ng/mL |
| ICR mouse, male | oral | 3 mg/kg | 1 h | 223 ng/mL and 259 ng/mL |
| Sprague Dawley rat, male | oral | 3 mg/kg | 0.25 h | 20.4 ng/mL and 13.9 ng/mL and 40.1 ng/mL |
| Sprague Dawley rat, male | oral | 3 mg/kg | 1 h | 68.1 ng/mL and 61.4 ng/mL |
| ICR mouse, male | intravenous | 1 mg/kg | 2 h | 41 ng/mL and 46.3 ng/mL |
| male Sprague Dawley rats | oral | 3 mg/kg | 4 h | 44.2 ng/mL |
| Sprague Dawley rat, male | oral | 3 mg/kg | 4 h | 68.4 ng/mL and 72.9 ng/mL |

Series 2
Target: Protein kinase C iota type (PRKCI, Homo sapiens, UniProt P41743)
Effect on: enzyme activity
Action: inhibitor
Tested at: 0.5 µM
Reference: control
Target sequence (P41743 1-596): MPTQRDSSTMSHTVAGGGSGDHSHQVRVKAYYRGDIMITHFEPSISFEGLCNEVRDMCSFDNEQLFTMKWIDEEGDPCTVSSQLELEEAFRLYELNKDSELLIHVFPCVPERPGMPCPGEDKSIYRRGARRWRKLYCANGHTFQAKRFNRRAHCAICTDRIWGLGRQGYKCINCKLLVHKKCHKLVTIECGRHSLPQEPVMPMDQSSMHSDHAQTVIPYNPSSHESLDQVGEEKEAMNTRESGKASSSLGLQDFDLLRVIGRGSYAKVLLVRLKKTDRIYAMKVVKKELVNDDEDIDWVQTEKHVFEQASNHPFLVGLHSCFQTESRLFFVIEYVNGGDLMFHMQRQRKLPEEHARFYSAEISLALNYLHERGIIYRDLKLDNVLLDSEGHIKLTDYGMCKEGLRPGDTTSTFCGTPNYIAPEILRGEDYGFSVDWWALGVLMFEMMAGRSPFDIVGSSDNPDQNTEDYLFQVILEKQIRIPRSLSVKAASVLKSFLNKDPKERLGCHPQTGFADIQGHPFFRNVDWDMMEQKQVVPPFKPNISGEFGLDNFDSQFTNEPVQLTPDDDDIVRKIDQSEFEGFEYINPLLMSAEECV
| SMILES | remaining activity [%] |
| --- | --- |
| c1ccc(-c2[nH]ncc2-c2ccnc3ccccc23)nc1 | 99 |
| Cc1cc2ncc(-c3ccccc3)nc2cc1C | 98 |
| O=C1C(Cl)=C(N2C(=O)CCC2=O)C(=O)c2ccccc21 | 96.6 |
| N#Cc1c(NC(=O)c2cccc3ccccc23)sc2c1CCCC2 | 95.9 |
| C[C@@H]1CCN(C(=O)CC#N)C[C@@H]1N(C)c1ncnc2[nH]ccc12 | 103 |
| CCN(CC)C(=O)c1ccc(Nc2nc(OCC3CCCCC3)c3[nH]cnc3n2)cc1 | 97.2 |
| CCN(CC)CCNC(=O)c1c(C)[nH]c(/C=C2\C(=O)Nc3ccc(Cl)cc32)c1C | 91.9 |
| CN(C)C[C@H]1CCn2c(c(C3=C(c4cn(C)c5ccccc45)C(=O)NC3=O)c3ccccc32)C1 | 36.2 |

Series 3
Compound: COc1cc(-c2cn(C3CCc4c(F)cccc4N(CC(F)(F)F)C3=O)nn2)ccc1-n1cnc(C)c1 (centres unmarked)
Method: competition with immobilised ligand
Tested at: 1 µM
| target | effect on | remaining binding [%] |
| --- | --- | --- |
| Serine/threonine-protein kinase PLK1 (PLK1, Homo sapiens, UniProt P53350) | cell-free assay | 100 |
| Mitogen-activated protein kinase kinase kinase 6 (MAP3K6, Homo sapiens, UniProt O95382) | cell-free assay | 98 |
| Tyrosine-protein kinase HCK (HCK, Homo sapiens, UniProt P08631) | cell-free assay | 100 |
| Mitogen-activated protein kinase kinase kinase 4 (MAP3K4, Homo sapiens, UniProt Q9Y6R4) | cell-free assay | 94 |
| Mitogen-activated protein kinase kinase kinase kinase 2 (MAP4K2, Homo sapiens, UniProt Q12851) | cell-free assay | 100 |
| Myotonin-protein kinase (DMPK, Homo sapiens, UniProt Q09013) | cell-free assay | 99 |
| MAP/microtubule affinity-regulating kinase 4 (MARK4, Homo sapiens, UniProt Q96L34) | cell-free assay | 100 |
| Activin receptor type-2A (ACVR2A, Homo sapiens, UniProt P27037) | binding | 0 |
| Casein kinase I isoform delta (CSNK1D, Homo sapiens, UniProt P48730) | cell-free assay | 100 |
| Serine/threonine-protein kinase TAO3 (TAOK3, Homo sapiens, UniProt Q9H2K8) | cell-free assay | 100 |
| Tyrosine-protein kinase TXK (TXK, Homo sapiens, UniProt P42681) | binding | 100 |
| Ribosomal protein S6 kinase alpha-6, C-terminal kinase domain (RPS6KA6, Homo sapiens, UniProt Q9UK32) | cell-free assay | 100 |
| Serine/threonine-protein kinase/endoribonuclease IRE1 (ERN1, Homo sapiens, UniProt O75460) | cell-free assay | 100 |
| Epidermal growth factor receptor (EGFR, Homo sapiens, UniProt P00533, del747-750/T751S) | cell-free assay | 96 |
| Serine/threonine-protein kinase Nek5 (NEK5, Homo sapiens, UniProt Q6P3R8) | cell-free assay | 90 |
| Serine/threonine-protein kinase SBK1 (SBK1, Homo sapiens, UniProt Q52WX2) | cell-free assay | 94 |

Series 4
Cell line: Huh-7
Tested at: 10 µM
Time: 24 h
| Structure (SMILES) | viability |
| --- | --- |
| O=C(O)c1ccccc1Nc1cccc(C(F)(F)F)c1 | 99.4% |
| C[C@H]1COc2c(N3CCN(C)CC3)c(F)cc3c(=O)c(C(=O)O)cn1c23 | 88.2% |
| O=C(O)P(=O)(O)O | 99.1% |
